Experimental data gathered from unrelated publications.
A part holds a random share of what one study measured. Substitutions count along the parent as printed.

Series 1
Target: Ras GTPase-activating protein-binding protein 1, C-terminal RGG region (G3BP1, Homo sapiens, UniProt Q13283)
Sequence of UniProt Q13283 (whole entry, looked up): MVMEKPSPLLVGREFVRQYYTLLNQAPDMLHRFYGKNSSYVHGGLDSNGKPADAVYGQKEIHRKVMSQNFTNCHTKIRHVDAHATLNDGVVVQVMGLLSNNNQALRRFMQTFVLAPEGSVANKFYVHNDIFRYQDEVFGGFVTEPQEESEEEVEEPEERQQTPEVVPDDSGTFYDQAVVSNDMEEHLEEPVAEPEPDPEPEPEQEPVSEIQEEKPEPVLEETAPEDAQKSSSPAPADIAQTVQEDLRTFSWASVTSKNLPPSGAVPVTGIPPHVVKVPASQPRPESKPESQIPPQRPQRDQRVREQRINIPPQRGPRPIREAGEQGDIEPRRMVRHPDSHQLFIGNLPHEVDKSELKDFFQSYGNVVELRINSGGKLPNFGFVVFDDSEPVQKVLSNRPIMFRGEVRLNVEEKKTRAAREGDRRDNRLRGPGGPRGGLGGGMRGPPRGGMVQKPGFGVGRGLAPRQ
Technique: RNA Bind-n-Seq
Form: RNA
Sample: in vitro
Tested at: 1 µM
Setting: whole 134-nt RNA, ends assumed
Together with: 150 mM KCl
Baseline: input library
Direction: higher = stronger binding
Strand | log2 enrichment
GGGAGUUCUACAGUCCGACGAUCGUCCUGUGCUACACAUCGUAUGUACCGAAUCGGUUUUUUUGGAAAAAGGUUUUUUUGGAAAGUAUUAUGUUACGCCGUUCGGAUCUGCACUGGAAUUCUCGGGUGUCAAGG | -1.74
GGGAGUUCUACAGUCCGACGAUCCCUCAAGUCCUGUGCUACACAUCGUAUGUACCGAAUCGGGGAGGGAGGGAGGGAAAGUAUUAUGUUACGCCGUUCGGAUCUGCACUUCCAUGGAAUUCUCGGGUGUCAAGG | 2.84
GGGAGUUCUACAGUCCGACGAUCAGUCCUGUGCUACACAUCGUAUGUACCGAAUCGGGGCCCGGGGCCCGGGGCCCGGGGAAAGUAUUAUGUUACGCCGUUCGGAUCUGCACUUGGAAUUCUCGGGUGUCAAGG | -1.91
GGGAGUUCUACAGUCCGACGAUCUCAAGUCCUGUGCUACACAUCGUAUGUACCGAAUCGGUGGAAAGGAAAAAAAGGAAAGUAUUAUGUUACGCCGUUCGGAUCUGCACUUCCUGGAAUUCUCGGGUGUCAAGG | -1.44
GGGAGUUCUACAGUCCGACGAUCCCUCAAGUCCUGUGCUACACAUCGUAUGUACCGAAUCGGGGCGGGCGGGCGGAAAGUAUUAUGUUACGCCGUUCGGAUCUGCACUUCCAGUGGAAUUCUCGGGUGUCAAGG | 1.51
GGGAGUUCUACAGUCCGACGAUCCACAGACAACACGCACCCACACAGACACAGAGGGAAGGGGUUGGGAUGGGGACAGGGUGCACAGCAGGGCGGGGUAGGGCCCCAGCCCCUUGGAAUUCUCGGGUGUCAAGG | -0.927
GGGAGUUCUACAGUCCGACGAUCUUACAUUACCUGGUGAAAUAGACAUUGACAGUAUCUCCUAUGAAGAGCUUUCACCACCUGAUGAAGAGCCUGCCAAGAAUAAAAAGGAAAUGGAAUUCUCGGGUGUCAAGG | -2.18
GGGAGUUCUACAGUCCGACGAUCUGUGAGCGGAGCCUGGAGGAGCUGCUGCACUACGUGGGCCAGCUGCGGGCUGAGCUGGCCAGCGCAGGUGGGUGGCCACCCUUGCAAGUGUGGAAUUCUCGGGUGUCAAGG | 0.038
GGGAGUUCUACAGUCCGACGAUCACUGGACCAGAUUGUUGAAAAAGGAAGACCAGCUCCUGGCUUCCAUCAUGGCGAUGGACCGGGAAAUGCAGUUCAAGAAAUCAUGAUUCCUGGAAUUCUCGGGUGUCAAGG | -1.33
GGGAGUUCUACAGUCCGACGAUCGCAGGAAGUUAAAACAAAUGGAAAUGCUUCGGAUAGUGGCAGGGGUGGGGGUUGCUAAGGAAAGGGUGGGAUGGGAGUGGGUAAAGAGUUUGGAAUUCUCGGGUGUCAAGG | 1.75
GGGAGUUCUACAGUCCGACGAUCAAGUCCUGUGCUACACAUCGUAUGUACCGAAUCAAAUUUUUAAAUUUAAAUUUAAAAAAGUAUUAUGUUACGCCGUUCGGAUCUGCACUUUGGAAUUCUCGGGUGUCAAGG | -2.3
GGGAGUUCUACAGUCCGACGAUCCUCAAGUCCUGUGCUACACAUCGUAUGUACCGAAUCGGGGCGGGGCGGCGGGGAAAGUAUUAUGUUACGCCGUUCGGAUCUGCACUUCCAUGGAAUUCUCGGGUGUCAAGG | 0.503
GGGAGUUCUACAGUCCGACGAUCAGUCCUGUGCUACACAUCGUAUGUACCGAAUCGGGGAAAAGGGGAAAAGGAAAAGGGAAAGUAUUAUGUUACGCCGUUCGGAUCUGCACUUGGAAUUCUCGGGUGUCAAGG | -1.23
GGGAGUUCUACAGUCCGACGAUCCUGUGCUACACAUCGUAUGUACCGAAUCGGGCCCCCCCGGGGCCCCCCCGGCCCCCCCGGGAAAGUAUUAUGUUACGCCGUUCGGAUCUGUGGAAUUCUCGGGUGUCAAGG | -1.69

Series 2
Target: CEBPA, bZIP domain (human)
Technique: DHFR protein complementation
Sample: yeast
Setting: single substitutions, most at no-binding floor
Baseline: wild-type JUN-FOS pair
Direction: higher = stronger binding
Starting sequence: JUN, bZIP domain (human); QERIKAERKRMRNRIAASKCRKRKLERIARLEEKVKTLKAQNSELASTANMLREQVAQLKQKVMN; partner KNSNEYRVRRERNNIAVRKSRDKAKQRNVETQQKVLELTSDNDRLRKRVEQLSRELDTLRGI
Change | binding fitness [natural log]
R30W | -1.47
T37Q | -1.06
L45Y | -1.31
A46Q | -1.42
Q41H | -1.34
E54Q | -0.977
S43I | -1.43
L31H | -1.55
M51Y | -1.37
K36A | -1.41
E54G | -1.48
K39R | -1.42
A46P | -1.49
A40R | -1.42
N42Q | -1.47
S47A | -1.35
M51A | -1.39
A29G | -1.45
Q55C | -1.1
I28N | -1.45

Series 3
Target: ABI1, truncated, D143A, DHFR fusion (Arabidopsis thaliana)
Technique: DHFR PCA, deep sequencing
Sample: yeast
Setting: methotrexate growth selection, single substitutions
Together with: (+)-ABA 0 µM
Baseline: wild-type fitted maximum
Direction: higher = stronger binding
Starting sequence: PYL1, truncated, DHFR fusion (Arabidopsis thaliana); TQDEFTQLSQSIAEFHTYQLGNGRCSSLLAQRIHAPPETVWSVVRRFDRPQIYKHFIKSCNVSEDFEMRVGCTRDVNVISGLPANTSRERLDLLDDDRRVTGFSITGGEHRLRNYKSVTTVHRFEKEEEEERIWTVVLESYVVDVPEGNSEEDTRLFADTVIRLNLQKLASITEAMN; partner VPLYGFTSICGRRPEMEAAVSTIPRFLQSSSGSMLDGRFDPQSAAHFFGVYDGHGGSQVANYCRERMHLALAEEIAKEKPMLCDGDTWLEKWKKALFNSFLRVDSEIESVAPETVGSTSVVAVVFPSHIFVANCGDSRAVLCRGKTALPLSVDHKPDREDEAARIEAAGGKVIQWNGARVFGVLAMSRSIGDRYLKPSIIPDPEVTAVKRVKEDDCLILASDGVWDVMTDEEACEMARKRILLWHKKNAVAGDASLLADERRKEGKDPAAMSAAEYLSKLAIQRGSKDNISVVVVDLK
Change | relative binding score
V100Y | -9.36%
D48N | 7.06%
I33H | 6.6%
T17Q | 8.41%
N149V | 56.3%
I79L | 7.07%
R45K | 2.69%
R113E | 9.68%
C60T | 2.87%
G21Q | 29.3%
E130T | 30.8%
E128C | 28.1%
R74N | 22%
Q19I | 8.87%
R88F | 6.89%
E109Y | -1.3%
W41P | -0.42%

Series 4
Target: UBE2S UBC core domain (UniProt Q16763)
Sequence of UniProt Q16763 (whole entry, looked up): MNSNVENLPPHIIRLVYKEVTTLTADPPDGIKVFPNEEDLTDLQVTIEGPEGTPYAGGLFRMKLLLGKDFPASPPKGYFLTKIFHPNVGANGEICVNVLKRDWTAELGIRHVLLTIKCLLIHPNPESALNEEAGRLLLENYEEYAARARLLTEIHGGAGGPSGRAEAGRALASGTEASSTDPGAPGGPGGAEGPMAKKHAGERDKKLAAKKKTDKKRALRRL
Technique: yeast two-hybrid
Sample: yeast
Setting: mostly zero background
Baseline: not given
Direction: higher = stronger interaction
B1: PJA2 RING domain (UniProt O43164); chain DHTAIGQEQCCPICCSEYIKDDIATELPCHHFFHKPCVSIWLQKSGTCPVCRRHFPPAVIEA
B2: SHPRH RING domain (UniProt Q149N8); chain KTSGGVNPEPCPICARQLGKQWAVLTCGHCFCNECISIIIEQYSVGSHRSSIKCAICRQTTSHKEISY
B3: TRIM2 RING domain (UniProt Q9C040); chain VRQIDKQFLICSICLERYKNPKVLPCLHTFCERCLQNYIPAHSLTLSCPVCRQTSILPEKGV
B4: RNF32 RING domain (UniProt Q9H0A6); chain VQALRRETHECSICLAPLSAAGGQRVGAGRRSREMALLSCSHVFHHACLLALEEFSVGDRPPFHACPLCRSCYQKKILEC
B5: RNF7 RING domain (UniProt Q9UBF6); chain AICRVQVMDACLRCQAENKQEDCVVVWGECNHSFHNCCMSLWVKQNNRCPLCQQDWVVQRIGK
B6: RMND5B RING domain (UniProt Q96G75); chain MKCWYHSVFACPILRQQTSDSNPPIKLICGHVISRDALNKLINGGKLKCPYCPMEQNPADGK
B7: ARIH1 RING domain (UniProt Q9Y4X5); chain NTRSSAQDMPCQICYLNYPNSYFTGLECGHKFCMQCWSEYLTTKIMEEGMGQTISCPAHGCDILVDDNTVM
B8: TRIM28 RING domain (UniProt Q13263); chain GAEALELLEHCGVCRERLRPEREPRLLPCLHSACSACLGPAAPAAANSSGDGGAAGDGTVVDCPVCKQQCFSKDIVE
B9: RNF17 RING domain (UniProt Q9BXT8); chain SQPWGAAEIQCTRCGRRVSRSSGHHCELQCGHAFCELCLLMTEECTTIICPDCEVATAVNTRQR
B10: TRIM47 RING domain (UniProt Q96LD4); chain MDGSGPFSCPICLEPLREPVTLPCGHNFCLACLGALWPHRGASGAGGPGGAARCPLCQEPFPDGLQLR
B11: TRIM74 RING domain (UniProt Q86UV6); chain SLLELEDWLQCPICLEVFKESLMLQCGHSYCKGCLVSLSYHLDTKVRCPMCWQVVDGSSSLP
B12: CBLL1 RING domain (UniProt Q75N03); chain GEKDDTPVHFCDKCGLPIKIYGRMIPCKHVFCYDCAILHEKKGDKMCPGCSDPVQRIEQCT
Molecule | lacZ reporter activity
B1 (PJA2 RING domain) | 0
VPADASPDSKCPICLDRFDNVSYLDRCLHKFCFRCVQEWSKNKAECPLCKQPFDSIFHSV (TOPORS RING domain (UniProt Q9NS56)) | 0
B2 (SHPRH RING domain) | 0
GSEEEEIPFRCFICRQAFQNPVVTKCRHYFCESCALEHFRATPRCYICDQPTGGIFNPA (RNF113B RING domain (UniProt Q8IZP6)) | 0
B3 (TRIM2 RING domain) | 0
AAQLLEEKLTCAICLGLYQDPVTLPCGHNFCGACIRDWWDRCGKACPECREPFPDGAELR (TRIM65 RING domain (UniProt Q6PJ69)) | 0
B4 (RNF32 RING domain) | 0
B5 (RNF7 RING domain) | 0
MEEMEEELKCPVCGSFYREPIILPCSHNLCQACARNILVQTPESESPQSHRAAGSGVSDY (TRIM9 RING domain (UniProt Q9C026)) | 0
B6 (RMND5B RING domain) | 0
EIKDYKARLTCPCCNMRKKDAVLTKCFHVFCFECVKTRYDTRQRKCPKCNAAFGANDFHR (RNF20 RING domain (UniProt Q5VTR2)) | 0
B7 (ARIH1 RING domain) | 0
B8 (TRIM28 RING domain) | 0
B9 (RNF17 RING domain) | 0
EDVLSKDAGECAICLEELQQGDTIARLPCLCIYHKGCIDEWFEVNRSCPEHPSD (ZNRF2 RING domain (UniProt Q8NHG8)) | 0
B10 (TRIM47 RING domain) | 0
PLRRLQEEKLCKICMDRHIAVVFIPCGHLVTCKQCAEAVDRCPMCSAVIDFKQRVF (BIRC8 RING domain (UniProt Q96P09)) | 0
B11 (TRIM74 RING domain) | 0
B12 (CBLL1 RING domain) | 0

Excerpt of the above (series 3):
Change | relative binding score
I33H | 6.6%
T17Q | 8.41%
N149V | 56.3%
I79L | 7.07%
R45K | 2.69%
R113E | 9.68%
C60T | 2.87%
G21Q | 29.3%
E130T | 30.8%
E128C | 28.1%
